Measurements of several laboratories.
A part holds a random share of what one study measured. Several values in a cell are separate wells, animals, samples, runs or records.
Sequence of UniProt O75676 (whole entry, looked up): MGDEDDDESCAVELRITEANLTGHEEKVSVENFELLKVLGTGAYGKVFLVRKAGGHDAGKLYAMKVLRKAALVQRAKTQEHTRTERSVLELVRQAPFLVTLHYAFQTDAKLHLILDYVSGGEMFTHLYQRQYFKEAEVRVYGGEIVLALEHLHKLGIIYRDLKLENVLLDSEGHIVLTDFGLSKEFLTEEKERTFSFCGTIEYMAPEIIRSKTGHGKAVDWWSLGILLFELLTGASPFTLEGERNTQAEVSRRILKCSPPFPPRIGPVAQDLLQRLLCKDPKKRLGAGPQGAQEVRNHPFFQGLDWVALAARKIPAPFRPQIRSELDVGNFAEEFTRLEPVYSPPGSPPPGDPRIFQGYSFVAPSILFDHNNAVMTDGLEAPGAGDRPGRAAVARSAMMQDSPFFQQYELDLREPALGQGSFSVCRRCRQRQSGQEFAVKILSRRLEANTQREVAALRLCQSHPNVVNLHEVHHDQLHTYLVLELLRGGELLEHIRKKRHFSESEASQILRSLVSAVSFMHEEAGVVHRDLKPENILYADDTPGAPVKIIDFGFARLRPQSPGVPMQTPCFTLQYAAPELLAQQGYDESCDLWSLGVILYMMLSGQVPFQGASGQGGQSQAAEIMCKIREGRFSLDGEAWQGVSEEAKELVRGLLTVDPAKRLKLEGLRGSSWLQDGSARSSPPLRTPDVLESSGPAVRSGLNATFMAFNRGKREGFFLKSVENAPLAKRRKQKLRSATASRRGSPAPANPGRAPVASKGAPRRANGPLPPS
Sequence of UniProt P49759 (whole entry, looked up): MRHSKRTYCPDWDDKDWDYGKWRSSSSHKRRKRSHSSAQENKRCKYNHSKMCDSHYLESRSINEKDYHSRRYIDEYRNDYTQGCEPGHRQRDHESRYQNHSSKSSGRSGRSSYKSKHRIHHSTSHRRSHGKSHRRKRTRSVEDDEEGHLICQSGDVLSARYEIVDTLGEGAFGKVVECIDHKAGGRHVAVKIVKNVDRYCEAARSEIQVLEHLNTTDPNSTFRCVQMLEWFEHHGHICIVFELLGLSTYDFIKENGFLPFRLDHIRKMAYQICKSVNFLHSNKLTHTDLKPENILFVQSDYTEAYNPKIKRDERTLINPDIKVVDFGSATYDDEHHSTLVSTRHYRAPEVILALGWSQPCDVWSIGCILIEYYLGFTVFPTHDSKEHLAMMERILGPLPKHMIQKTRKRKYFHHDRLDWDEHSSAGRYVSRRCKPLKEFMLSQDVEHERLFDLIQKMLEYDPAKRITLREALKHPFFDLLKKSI
Sequence of UniProt Q9H4B4 (whole entry, looked up): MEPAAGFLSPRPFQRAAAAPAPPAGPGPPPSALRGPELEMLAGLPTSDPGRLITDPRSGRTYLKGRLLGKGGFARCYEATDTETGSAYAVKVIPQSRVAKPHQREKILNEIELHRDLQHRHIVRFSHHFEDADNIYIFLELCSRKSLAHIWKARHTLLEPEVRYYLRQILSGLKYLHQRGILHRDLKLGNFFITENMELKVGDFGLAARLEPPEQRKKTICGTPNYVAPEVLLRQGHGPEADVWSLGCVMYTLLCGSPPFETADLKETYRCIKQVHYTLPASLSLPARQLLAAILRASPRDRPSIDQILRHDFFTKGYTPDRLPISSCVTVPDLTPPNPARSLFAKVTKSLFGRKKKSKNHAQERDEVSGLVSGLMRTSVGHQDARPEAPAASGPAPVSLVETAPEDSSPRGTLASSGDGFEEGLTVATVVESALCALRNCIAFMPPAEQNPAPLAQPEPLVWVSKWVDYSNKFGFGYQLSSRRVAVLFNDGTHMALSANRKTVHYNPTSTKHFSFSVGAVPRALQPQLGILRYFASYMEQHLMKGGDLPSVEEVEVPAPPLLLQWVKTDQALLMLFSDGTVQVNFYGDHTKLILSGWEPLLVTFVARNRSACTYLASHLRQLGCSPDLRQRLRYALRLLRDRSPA
Sequence of UniProt Q9HAZ1 (whole entry, looked up): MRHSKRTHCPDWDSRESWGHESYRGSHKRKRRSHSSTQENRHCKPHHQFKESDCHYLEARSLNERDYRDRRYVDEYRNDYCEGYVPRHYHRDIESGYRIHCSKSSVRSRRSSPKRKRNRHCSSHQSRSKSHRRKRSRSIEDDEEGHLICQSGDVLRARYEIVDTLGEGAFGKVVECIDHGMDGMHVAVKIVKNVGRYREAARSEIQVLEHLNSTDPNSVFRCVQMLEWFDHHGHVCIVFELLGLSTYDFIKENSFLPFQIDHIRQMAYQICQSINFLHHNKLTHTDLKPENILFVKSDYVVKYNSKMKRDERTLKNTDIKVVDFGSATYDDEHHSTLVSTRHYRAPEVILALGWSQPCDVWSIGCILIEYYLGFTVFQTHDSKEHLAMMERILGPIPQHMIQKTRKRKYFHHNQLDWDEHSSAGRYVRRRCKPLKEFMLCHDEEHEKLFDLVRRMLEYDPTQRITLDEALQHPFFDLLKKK

Study 1
Target: DNA polymerase theta, ATPase domain (POLQ, Homo sapiens, UniProt O75417)
Sequence of UniProt O75417 (whole entry, unmodified, looked up): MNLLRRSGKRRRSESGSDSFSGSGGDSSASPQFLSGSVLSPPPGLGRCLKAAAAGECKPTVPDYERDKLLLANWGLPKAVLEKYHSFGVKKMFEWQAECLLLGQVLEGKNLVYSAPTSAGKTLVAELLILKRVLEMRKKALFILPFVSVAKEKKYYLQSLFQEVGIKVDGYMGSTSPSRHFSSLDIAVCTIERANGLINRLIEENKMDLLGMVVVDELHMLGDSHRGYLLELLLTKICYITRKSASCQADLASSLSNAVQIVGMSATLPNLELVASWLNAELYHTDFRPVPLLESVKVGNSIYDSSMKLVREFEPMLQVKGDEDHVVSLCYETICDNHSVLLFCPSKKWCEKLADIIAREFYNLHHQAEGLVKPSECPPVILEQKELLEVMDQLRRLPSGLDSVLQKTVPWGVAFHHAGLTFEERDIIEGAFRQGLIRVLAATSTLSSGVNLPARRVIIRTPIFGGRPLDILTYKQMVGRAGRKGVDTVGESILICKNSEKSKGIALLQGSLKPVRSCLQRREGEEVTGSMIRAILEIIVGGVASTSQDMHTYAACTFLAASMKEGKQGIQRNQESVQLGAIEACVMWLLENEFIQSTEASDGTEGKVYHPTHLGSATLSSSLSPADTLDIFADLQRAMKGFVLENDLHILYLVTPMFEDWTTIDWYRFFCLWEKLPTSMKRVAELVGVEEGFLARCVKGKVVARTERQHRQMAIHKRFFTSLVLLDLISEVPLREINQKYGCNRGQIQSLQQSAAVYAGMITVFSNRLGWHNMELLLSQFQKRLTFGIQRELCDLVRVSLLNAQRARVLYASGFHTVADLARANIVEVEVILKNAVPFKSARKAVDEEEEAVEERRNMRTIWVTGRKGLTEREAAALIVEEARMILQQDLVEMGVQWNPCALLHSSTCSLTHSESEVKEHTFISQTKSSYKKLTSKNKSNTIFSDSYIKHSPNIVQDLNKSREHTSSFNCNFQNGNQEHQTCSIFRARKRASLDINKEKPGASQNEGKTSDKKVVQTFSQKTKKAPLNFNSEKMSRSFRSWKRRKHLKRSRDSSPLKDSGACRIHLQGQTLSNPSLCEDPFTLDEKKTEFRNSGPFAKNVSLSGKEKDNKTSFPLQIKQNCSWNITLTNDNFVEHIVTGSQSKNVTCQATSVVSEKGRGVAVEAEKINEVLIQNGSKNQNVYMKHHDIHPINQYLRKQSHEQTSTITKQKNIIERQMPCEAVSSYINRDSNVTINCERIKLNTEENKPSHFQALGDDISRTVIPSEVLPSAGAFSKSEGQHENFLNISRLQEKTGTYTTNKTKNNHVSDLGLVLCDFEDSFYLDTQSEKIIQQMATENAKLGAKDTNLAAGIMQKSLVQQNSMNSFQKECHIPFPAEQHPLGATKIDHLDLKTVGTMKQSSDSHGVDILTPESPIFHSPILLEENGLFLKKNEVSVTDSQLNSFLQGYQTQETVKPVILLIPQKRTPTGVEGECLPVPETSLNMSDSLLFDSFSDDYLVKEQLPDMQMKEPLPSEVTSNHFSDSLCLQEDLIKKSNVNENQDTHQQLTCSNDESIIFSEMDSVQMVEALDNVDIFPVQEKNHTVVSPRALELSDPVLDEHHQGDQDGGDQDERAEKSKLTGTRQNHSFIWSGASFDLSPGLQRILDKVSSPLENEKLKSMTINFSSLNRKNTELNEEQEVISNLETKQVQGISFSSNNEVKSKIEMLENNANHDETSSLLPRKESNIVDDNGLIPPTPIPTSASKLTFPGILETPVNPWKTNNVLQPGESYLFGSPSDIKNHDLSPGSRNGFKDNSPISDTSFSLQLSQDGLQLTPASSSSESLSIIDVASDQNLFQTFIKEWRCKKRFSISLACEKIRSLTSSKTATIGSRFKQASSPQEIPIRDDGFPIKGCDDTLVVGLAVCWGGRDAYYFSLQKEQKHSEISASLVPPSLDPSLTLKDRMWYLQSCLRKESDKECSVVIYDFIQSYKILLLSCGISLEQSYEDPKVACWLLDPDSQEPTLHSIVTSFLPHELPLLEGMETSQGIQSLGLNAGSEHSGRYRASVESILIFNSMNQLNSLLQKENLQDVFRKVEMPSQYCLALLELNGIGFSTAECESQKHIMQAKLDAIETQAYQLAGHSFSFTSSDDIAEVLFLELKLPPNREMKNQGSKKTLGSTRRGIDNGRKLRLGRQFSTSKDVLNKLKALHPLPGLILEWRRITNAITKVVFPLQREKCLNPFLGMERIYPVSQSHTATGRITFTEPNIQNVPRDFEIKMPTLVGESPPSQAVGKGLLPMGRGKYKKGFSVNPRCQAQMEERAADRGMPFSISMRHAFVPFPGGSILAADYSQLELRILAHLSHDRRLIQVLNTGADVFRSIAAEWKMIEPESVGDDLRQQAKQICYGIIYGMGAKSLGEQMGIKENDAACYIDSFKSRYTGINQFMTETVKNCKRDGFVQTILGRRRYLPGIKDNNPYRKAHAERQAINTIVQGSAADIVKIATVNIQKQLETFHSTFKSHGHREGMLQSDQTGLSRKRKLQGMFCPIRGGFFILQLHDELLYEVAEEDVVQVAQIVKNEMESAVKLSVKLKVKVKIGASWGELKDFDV
Observed: enzyme activity
Action: inhibitor
Concentration: 77 µM
Reference: untreated
SMILES	remaining activity
Cc1onc(-c2c(F)cccc2Cl)c1C(=O)N[C@@H]1C(=O)N2[C@@H]1SC(C)(C)[C@@H]2C(=O)O	97.9%
Cc1ccc(NC2=CC(=O)c3sc(C)nc3C2=O)cc1	113%
Nc1ccc(O)c(C(=O)O)c1	92.2% and 87.8%
CCC(=O)O[C@]1(C(=O)CCl)[C@@H](C)C[C@H]2[C@@H]3C[C@H](F)C4=CC(=O)C=C[C@]4(C)[C@@]3(F)[C@@H](O)C[C@@]21C	101%

Study 2
Structure (SMILES): Cc1c(NC(=O)c2cc(C(N)=O)nc3cc(F)ccc23)c(C(F)(F)F)nn1Cc1ccc(C(C)(C)C)cc1
Observed: cell-free assay
Technique: competition with immobilised ligand
Concentration: 1 µM
target	remaining binding [%]
Phosphatidylinositol 4,5-bisphosphate 3-kinase catalytic subunit delta isoform (PIK3CD, Homo sapiens, UniProt O00329)	100
Dual specificity protein kinase CLK1 (CLK1, Homo sapiens, UniProt P49759)	62
Serine/threonine-protein kinase LATS2 (LATS2, Homo sapiens, UniProt Q9NRM7)	84
Ribosomal protein S6 kinase alpha-4, C-terminal kinase domain (RPS6KA4, Homo sapiens, UniProt O75676)	100
Activated CDC42 kinase 1 (TNK2, Homo sapiens, UniProt Q07912)	100
Ephrin type-B receptor 1 (EPHB1, Homo sapiens, UniProt P54762)	86
Mast/stem cell growth factor receptor Kit (KIT, Homo sapiens, UniProt P10721, T670I/V559D)	100
Epithelial discoidin domain-containing receptor 1 (DDR1, Homo sapiens, UniProt Q08345)	95

Study 3
Structure (SMILES): O=C1Cc2c([nH]c3ccc(Br)cc23)-c2ccccc2N1
Observed: enzyme activity
Action: inhibitor
Concentration: 0.5 µM
Reference: control
target	remaining activity
Discoidin domain-containing receptor 2 (DDR2, Homo sapiens, UniProt Q16832)	98.4%
Mitogen-activated protein kinase 14 (MAPK14, Homo sapiens, UniProt Q16539)	93%
Serine/threonine-protein kinase DCLK2 (DCLK2, Homo sapiens, UniProt Q8N568)	94.6%
Serine/threonine-protein kinase MRCK beta (CDC42BPB, Homo sapiens, UniProt Q9Y5S2)	95.9%
Serine/threonine-protein kinase PLK3 (PLK3, Homo sapiens, UniProt Q9H4B4)	96%
Misshapen-like kinase 1 (MINK1, Homo sapiens, UniProt Q8N4C8)	29.6%
Dual specificity protein kinase CLK4 (CLK4, Homo sapiens, UniProt Q9HAZ1)	91.1%
Calcium/calmodulin-dependent protein kinase type IV (CAMK4, Homo sapiens, UniProt Q16566)	98.1%
Ribosomal protein S6 kinase alpha-4 (RPS6KA4, Homo sapiens, UniProt O75676)	108%
Cyclin-dependent kinase 1, with cyclin A (CDK1, Homo sapiens, UniProt P06493)	88.5%
Cyclin-dependent kinase 9, with cyclin K (CDK9, Homo sapiens, UniProt P50750)	31.5%
Myosin-IIIb (MYO3B, Homo sapiens, UniProt Q8WXR4)	97.4%
Tyrosine-protein kinase TXK (TXK, Homo sapiens, UniProt P42681)	82.6%

Study 4
Organism: Sarcocystis neurona
Observed: parasite activity
Concentration: 10 µM
Time: 96 h
SMILES	activity class
C/C=C1\[C@H]2C=C(C)C[C@]1(N)c1ccc(=O)[nH]c1C2	inactive
CCC(C)n1ncn(-c2ccc(N3CCN(c4ccc(OCC5COC(Cn6cncn6)(c6ccc(Cl)cc6Cl)O5)cc4)CC3)cc2)c1=O (stereo not drawn)	inactive
CC(C(O)c1ccc(O)cc1)N1CCC(Cc2ccccc2)CC1 (stereo not drawn)	inactive
Clc1ccccc1C(c1ccccc1)(c1ccccc1)n1ccnc1	inactive
C=CC[C@@H]1/C=C(\C)C[C@H](C)C[C@H](OC)[C@H]2O[C@@](O)(C(=O)C(=O)N3CCCC[C@H]3C(=O)O[C@H](/C(C)=C/[C@@H]3CC[C@@H](O)[C@H](OC)C3)[C@H](C)[C@@H](O)CC1=O)[C@H](C)C[C@@H]2OC	inactive
